Assay results gathered from unrelated publications.
Every numbered part comes from another study and shows a few of its results, in no order.

Study 1 — method: RNAcompete; form: RNA; sample: in vitro; tested at: 20 nM; setting: 7-mer, probes averaged, single round; relative to: mean of 7-mers; reading: higher = stronger binding
Target: PABPC1L2, full length, GST fusion (mouse, UniProt A0ABA7IW68)
Residues (chain): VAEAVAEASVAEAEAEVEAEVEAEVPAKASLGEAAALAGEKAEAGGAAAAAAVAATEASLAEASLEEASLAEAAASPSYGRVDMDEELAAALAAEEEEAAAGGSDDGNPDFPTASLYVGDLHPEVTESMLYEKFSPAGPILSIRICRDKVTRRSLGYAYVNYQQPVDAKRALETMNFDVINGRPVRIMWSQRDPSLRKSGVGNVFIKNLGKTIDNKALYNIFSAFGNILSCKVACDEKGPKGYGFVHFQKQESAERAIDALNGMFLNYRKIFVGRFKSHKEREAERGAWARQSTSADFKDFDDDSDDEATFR
Strand	7-mer Z-score
ACUAUCU	-0.0917
UGGCGGA	0.292
AAGGUGA	0.372
CGACGUU	-0.141
AUCCCCC	-0.527

Study 2 — method: protein binding microarray; form: double-stranded DNA, one strand shown; sample: in vitro; tested at: not given; relative to: not given; reading: higher = stronger binding
Target: Histone acetyltransferase KAT6A, winged helix 2, GST fusion (KAT6A, Homo sapiens, UniProt Q92794, residues 85-181)
Setting: 8-mer, flanks averaged, mean of 2 arrays, mostly near background
Construct (chain): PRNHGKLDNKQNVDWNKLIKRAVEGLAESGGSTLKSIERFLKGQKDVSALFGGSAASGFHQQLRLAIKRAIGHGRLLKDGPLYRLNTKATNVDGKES
Strand	E-score
ATCAGCGG	0.0885
GGCGTGAC	0.0596
TAATTAGA	0.0171
CATAAGGA	-0.257
ACACTACT	0.0309
CCTTATTA	-0.18
AAAGCTGA	0.14

Study 3 — method: protein-binding microarray; form: double-stranded DNA, one strand shown; sample: in vitro; tested at: not given; reading: higher = stronger binding
Target: Transcription factor Sp1 (SP1, Homo sapiens, UniProt P08047, residues 1-785, full length assumed)
Chain of UniProt P08047 (whole entry, looked up): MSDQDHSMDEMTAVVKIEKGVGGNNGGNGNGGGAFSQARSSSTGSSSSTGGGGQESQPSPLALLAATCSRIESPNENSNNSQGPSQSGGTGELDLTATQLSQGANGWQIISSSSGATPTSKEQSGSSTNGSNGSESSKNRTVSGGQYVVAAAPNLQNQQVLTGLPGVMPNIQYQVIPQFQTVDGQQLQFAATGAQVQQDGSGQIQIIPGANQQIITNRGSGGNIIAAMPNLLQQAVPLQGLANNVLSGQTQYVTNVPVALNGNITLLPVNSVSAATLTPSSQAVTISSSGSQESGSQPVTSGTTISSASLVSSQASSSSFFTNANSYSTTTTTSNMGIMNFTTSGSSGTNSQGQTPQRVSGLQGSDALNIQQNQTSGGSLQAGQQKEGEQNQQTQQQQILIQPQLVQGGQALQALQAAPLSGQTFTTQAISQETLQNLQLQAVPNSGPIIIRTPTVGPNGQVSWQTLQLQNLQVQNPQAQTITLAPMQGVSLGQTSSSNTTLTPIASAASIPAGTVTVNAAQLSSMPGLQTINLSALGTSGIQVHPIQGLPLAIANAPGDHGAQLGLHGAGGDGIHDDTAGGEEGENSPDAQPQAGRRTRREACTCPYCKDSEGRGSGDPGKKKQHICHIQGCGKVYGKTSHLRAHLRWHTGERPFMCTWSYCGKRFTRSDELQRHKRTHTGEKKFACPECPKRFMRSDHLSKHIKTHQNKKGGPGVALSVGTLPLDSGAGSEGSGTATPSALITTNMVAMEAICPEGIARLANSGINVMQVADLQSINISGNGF
Setting: k-mer, scored over probes, only values ≥0.25
Strand	E-score
CCCCTCTC	0.264
ACGCCCCC	0.49
GTAGGGGA	0.255
CGCCCCGC	0.273

Mixed results
Molecule	target	test	system	setting	how to read	measurement	result
PhoQ, residues 284 288 289 292 302 303 TAVSDG	PhoP, residues 12 14 15 18 19 SEGLL (Escherichia coli, UniProt P23836)	Sort-seq, measured: YFP reporter	E. coli	PhoQ-PhoP variant library, together with: 10 µM Mg2+	relative to: high Mg2+ state, higher = stronger signaling	fold induction	7.53
